Assay results collected from several papers.
Each numbered part is a random draw from the data of one study; scales do not carry over between parts. Changes are numbered by the printed parent chain.

Sample 1
Target: Sox, HMG box (Pigoraptor chileana)
Technique: Spec-seq
Form: double-stranded DNA, one strand shown
Matrix: in vitro
Tested at: not given
Setting: whole probe, mean of replicates
Relative to: not given
Reading: lower = stronger binding
All sequences stand within: GAGTCGTCTCGTCAGCAC … CCGTAGAGCACTCAGGTC
Residues (chain): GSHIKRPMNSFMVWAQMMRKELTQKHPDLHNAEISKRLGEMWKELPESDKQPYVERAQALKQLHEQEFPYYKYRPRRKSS
`CCTTGTT` — result for “relative binding energy”: -2.2 ln ratio.
For `CATCGGT`, “relative binding energy” read 0.608 ln ratio.
`AAGAGTT`: “relative binding energy” -0.65 ln ratio.
`CATCTTC`: “relative binding energy” 0.733 ln ratio.
Under “relative binding energy”, `CATTTAA` is recorded as 0.0363 ln ratio.
Under “relative binding energy”, `TCGAGTT` is recorded as 1.1 ln ratio.
`CTCGGTT` — result for “relative binding energy”: 0.795 ln ratio.
`TGGGGTT` — result for “relative binding energy”: 0.685 ln ratio.

Sample 2
Target: TATA-box-binding protein 1 (TBP1, Arabidopsis thaliana, UniProt P28147, residues 1-200, full length assumed)
Technique: protein-binding microarray
Form: double-stranded DNA, one strand shown
Matrix: in vitro
Tested at: not given
Setting: k-mer, scored over probes, only values ≥0.25
Reading: higher = stronger binding
Target sequence (chain): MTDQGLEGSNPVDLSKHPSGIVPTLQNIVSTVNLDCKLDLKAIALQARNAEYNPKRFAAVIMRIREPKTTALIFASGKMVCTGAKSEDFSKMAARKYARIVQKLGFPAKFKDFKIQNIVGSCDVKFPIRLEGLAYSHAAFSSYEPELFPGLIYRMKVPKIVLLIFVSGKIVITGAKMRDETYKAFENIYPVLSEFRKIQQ
With `ATATTTA` the E-score was 0.469.
With `AAAAAAT` the E-score was 0.259.
The E-score of `AATTATA` is reported as 0.44.
`CAATAAA` has an E-score of 0.366.
`ATATTAC` gave an E-score of 0.407.
`AACAAAA` has an E-score of 0.26.
`TAAACAA` gave an E-score of 0.263.
With `TAAAGTA` the E-score was 0.286.

Sample 3
Target: MAFF, bZIP domain (human)
Technique: DHFR protein complementation
Matrix: yeast
Setting: single substitutions, most at no-binding floor
Relative to: wild-type JUN-FOS pair
Reading: higher = stronger binding
Starting sequence: JUN, bZIP domain (human); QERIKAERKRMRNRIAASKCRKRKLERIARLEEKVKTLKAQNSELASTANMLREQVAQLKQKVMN; partner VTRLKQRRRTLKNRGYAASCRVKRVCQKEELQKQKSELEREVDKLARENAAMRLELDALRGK
The binding fitness of `V35W` is reported as -1.46 natural log.
`E33P` has a binding fitness of -1.51 natural log.
`M51Q` gave a binding fitness of -1.23 natural log.
`I28L` gave a binding fitness of -1.4 natural log.
With `L31Q` the binding fitness was -1.54 natural log.
For `E54S`, the binding fitness was -1.47 natural log.
`S43K` gave a binding fitness of -1.52 natural log.
`V56H` gave a binding fitness of -1.54 natural log.

Mixed results
Starting sequence: viral docking peptide; KGVKRKLFAEDSS
`KGWKRKLFAEDSS [V3W]` — result for “normalised enrichment score”: 4.25 (CCNA2, cyclin fold, Cln2 fusion (human); yeast growth competition, sequencing; yeast; strong parent motif; relative to: not given, higher = stronger binding).

A few entries again (sample 3):
`I28L` gave a binding fitness of -1.4 natural log.
With `L31Q` the binding fitness was -1.54 natural log.
